Published values of several laboratories.
Numbered parts are unrelated; each lists some results of a single study. Substitutions count along the parent as printed.

Block 1
Target: Interferon regulatory factor 3, full length, phosphomimetic (IRF3, Homo sapiens, UniProt Q14653, residues 1-427, S386D/S396D/S398D/S402D/T404D/S405D)
Technique: protein-binding microarray
Molecule type: double-stranded DNA, one strand shown
Sample: in vitro
Concentration: 2540 nM top
Notes: 60-bp whole probe
Together with: salmon DNA 0.4 mg/ml
Baseline: random background probes
Reading: higher = stronger binding
Measurement: fitted relative affinity
All sequences stand within: GCCTAGCAC … GTCTTGATTCGCTTGACGCTGCTG
Construct (chain): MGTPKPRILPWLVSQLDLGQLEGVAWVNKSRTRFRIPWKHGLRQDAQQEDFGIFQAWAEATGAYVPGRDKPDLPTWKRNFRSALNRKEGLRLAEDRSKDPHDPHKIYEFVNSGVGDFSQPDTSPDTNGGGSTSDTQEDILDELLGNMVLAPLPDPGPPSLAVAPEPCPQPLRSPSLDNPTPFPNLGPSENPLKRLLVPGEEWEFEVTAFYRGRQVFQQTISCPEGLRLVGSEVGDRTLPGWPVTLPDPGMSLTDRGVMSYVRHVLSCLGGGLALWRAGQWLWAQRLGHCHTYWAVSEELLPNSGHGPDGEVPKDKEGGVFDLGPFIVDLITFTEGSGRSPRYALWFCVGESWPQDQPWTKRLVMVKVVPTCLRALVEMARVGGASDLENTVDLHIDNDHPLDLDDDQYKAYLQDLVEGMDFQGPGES
TCAGTTTTCTCTATTGCACTGTGCTAG: 1.99 z-score
CCAGGGCTCTAGAGAAATAGGTGCTAG: -0.844 z-score
TTAGATCTCAGTTTCGATTCGTGCTAG: 5.08 z-score
GACGGACGGGACTATCGGGACGTGCTA: -0.467 z-score
GTTGCTCTCCGGGGTCTGTGAGTGCTA: -0.184 z-score
GACGGTTTCGGTATCCGGACGTGCTAG: 8.43 z-score
GACGGTATTGGGTATCGGGACGTGCTA: 0.258 z-score
TTAGATTTCGCGTATCGATTAGTGCTA: 0.696 z-score
GACGGTTTGCTTTTCCTGACGTGCTAG: 1.93 z-score
TTAGGACTGGGGTTGCGGTTAGTGCTA: -0.0617 z-score
GACGAACTGAGGTATCGAGACGTGCTA: -0.0542 z-score
GACGGATTCCTTCTCCTGACGTGCTAG: 5.24 z-score
GACGGTATCCTTTTGCTGACGTGCTAG: 5.95 z-score
GACGGAGTGGACTTTCGGGACGTGCTA: 0.172 z-score
GACGGACTGCTACTGCTGGCGTGCTAG: -0.736 z-score
GACGAACTGGTGTATCGAGACGTGCTA: -0.0313 z-score
TCGGGTCTCCCTTGAGGTTTGTGCTAG: -0.0577 z-score
GACGGTATCGGGAATGGGGACGTGCTA: 0.997 z-score
TTAGGACTGCTTATTCTTTAGTGCTAG: -0.191 z-score
GTCGATCTCAGTTTCGAGACGTGCTAG: 3.52 z-score
GACGATTCCAGTCTCGAGACGTGCTAG: 1.51 z-score
GACGATTTCAGTATCGAGCCGTGCTAG: 2.01 z-score
GACGATTTCGGGTAGCGAGACGTGCTA: 1.32 z-score
TTAGGTTTCGACACTGGGTAAGTGCTA: 2.68 z-score
TCATTTTTCTTTTATTAACTGTGCTAG: 3.87 z-score

Block 2
Target: Prothrombin, mature alpha-thrombin (F2, Homo sapiens, UniProt P00734)
Technique: aptamer microarray, sandwich
Molecule type: DNA with 2'F-ANA
Sample: in vitro
Concentration: 200 nM
Notes: whole 15-mer aptamer, many near background
Together with: Cy3 exosite-II aptamer, 400 nM
Reading: higher = stronger binding
Measurement: mean fluorescence intensity
Oligonucleotide: GGTTGGTGTGGTTGG
2'F-ANA at 1 3 6 7 9 10 11 12 13 14 15: 108 a.u.
2'F-ANA at 2 3 5 6 7 8 9 11 12 13 14 15: 55.9 a.u.
2'F-ANA at 1 2 3 4 5 9 14: 45.4 a.u.
2'F-ANA at 3 4 5 7 12 14 15: 62.9 a.u.
2'F-ANA at 3 4 7 9 10 12 13: 306 a.u.
2'F-ANA at 1 2 3 5 7 8 9 10 15: 54.8 a.u.
2'F-ANA at 2 3 5 8 9 10 14: 85.7 a.u.
2'F-ANA at 1 2 3 5 6 9 11 13 14 15: 47.9 a.u.
2'F-ANA at 2 4 7 8 13 15: 261 a.u.
2'F-ANA at 2 5 6 9 12 13 14: 67.7 a.u.
2'F-ANA at 3 4 6 8 9 14: 241 a.u.
2'F-ANA at 2 3 4 6 9 12 14: 230 a.u.
2'F-ANA at 2 4 5 6 8 14: 70.9 a.u.
2'F-ANA at 3 4 8 11 12 13 14: 366 a.u.
2'F-ANA at 1 2 6 7 11 12: 257 a.u.
2'F-ANA at 2 8 15: 519 a.u.
2'F-ANA at 4 6 10 11: 74 a.u.

Block 3
Target: RNA binding protein fox-1 homolog 2, RRM domain, GST-SBP tag (RBFOX2, Homo sapiens, UniProt O43251-10, residues 100-194)
Technique: RNA Bind-n-Seq
Molecule type: RNA
Sample: in vitro
Concentration: 365 nM
Notes: natural RNA segment, single round, ends assumed
Baseline: no-protein control
Reading: higher = stronger binding
Measurement: RBNS enrichment (R)
All sequences stand within: GGGAGUUCUACAGUCCGACGAUC … UGGAAUUCUCGGGUGCCAA
Residues (chain): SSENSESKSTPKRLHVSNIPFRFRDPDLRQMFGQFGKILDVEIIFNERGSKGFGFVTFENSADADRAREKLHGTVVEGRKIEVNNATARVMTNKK
UAGUAAGUCUAAGUCAAGCAAGACUUUGUGAAUUUGUGACAAGUUUGCACUUACAAAAUCAUGUAAAUAUGUCACAUUUUGUUUAACAUUAUUUUUCCAAGUGUUUAGGU: 0.401
ACCUCGAUAGGGUAGGUAGAUUCCUAAUAGUGCUGGUGAGCAUCACAAUGCUGUGCAAAGAUUCAAGAGGAGGCAGUCACUGUACUUUGCCUGCUUUUGGGCCUAGAUAA: 0.307
CUGUGUAGAUGAUUAACUGACUUUUUAAUAUUUUGUAAAUAAAUCGGAUUCCUUGUGUCCUUUGUGCUAGUGUAACCCGGGACUGGAAUGUAAAGUGAAGUUCGGAGCUC: 1.22
AAGGCAGCGGGGAGCAGACAAAGAUGAGGUCUACACUGUCCUUCAUGGGGAUUAAAGCUAUGGUUAUAUUAGCACCAAACUUCUACAAACCAAGCUCAGGGCCCCAACCC: 0.395
UCUCUGAUUUUUUUUUCCUCUCUUUUCAUUAUGCACUGGACAGCCACACACCGUGUACCCAUAGGGCCCCAAAUGUGGGGUCACAUGGUCUUGAAUUUUGUUGGUUACAU: 1.39
CCUGUCUGGGAAAAGGUCACUGGACCUGGAAGGGUCCCCAGGGUCCCCUGACUCCCGUCUCCAUCUGUCACGUGGUUCACCAUCAUCAGGCACCAGGCGCAAACUGCUUC: 0.333
CUGUAAAAAGGGAGGUGAGAAUACCUACCUCACGGAACUGUUGGGAGGCUCAGAUGAGAUGCUAUAUGUGAAAACAUUCUGUAAGCUUCGUACAAAUGUGAAGUAUUAAU: 0.547
UCUAGGGCUGCUAUGGUCACUAACACACUGAUUCUCCUUAAAGUAAUUCUCGAAGUGUGGAACAAAGUGACCGAGACAGCAUCCUCAGUCAUCUUUGUCUCCUUCCCUGG: 0.302
GGAAUCCUACAUGCCAUCUUCAGCCUGGACUCAAUUACUAAACUCGGAUUUGUCUGCAAGACUUUCUCCACGUGCCCUUGACAUUGGAAUCACUUGUGGGGCCUCCUAGG: 0.339
CUGGCCCUCAGUGGGUAGGGCGGUGCUGCCUAGGCACACAGCAGCGCUUACGGGCCCCAGGUGCCUACUAGGCUGCCUUCCUCUUCCCCGCUGUCAGUCUGUGUCCUCCA: 0.267
GGCACUGAGAUACCAGCGAGGAGGCUCCAGAGGGCACUCUGCUUGUUAUUAGAGAUUACCUCCUGAGAAAAAAGGUUCCGCUUGGAGCAGAGGGGCUGAAUAGCAGAAGG: 0.939
CCAUAAAACCAUUUUUUGAACCAAUCAGUAAUUUUAAGGUUUUGUUUGUUCUAAAUGUAAGAGUUCAGACUCACAUUCUAUUAAAAUUUAGCCCUAAAAUGACAAGCCUU: 0.556

Block 4
Target: CCND2, cyclin fold, Cln2 fusion (human)
Technique: yeast growth competition, sequencing
Sample: yeast
Notes: strong parent motif
Baseline: not given
Reading: higher = stronger binding
Measurement: normalised enrichment score
Parent: PKN2 docking peptide (human); VSAVRKLDFSDTM; partner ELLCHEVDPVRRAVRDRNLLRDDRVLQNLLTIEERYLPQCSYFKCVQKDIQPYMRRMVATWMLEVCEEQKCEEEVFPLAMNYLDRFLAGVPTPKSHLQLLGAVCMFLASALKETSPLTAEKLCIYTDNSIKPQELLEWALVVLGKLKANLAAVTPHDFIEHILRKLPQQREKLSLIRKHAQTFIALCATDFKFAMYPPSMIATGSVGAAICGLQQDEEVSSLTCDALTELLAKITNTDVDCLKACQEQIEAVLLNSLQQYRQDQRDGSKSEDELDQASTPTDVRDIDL
VSAVRKLDFSDWM [T12W]: 3.32
VSAVRKYDFSDTM [L7Y]: 0.357
VSAVRKLWFSDTM [D8W]: 0.194
VSAVRKLDISDTM [F9I]: 0.485
VSAVRKLDFMDTM [S10M]: 2.47
VSGVRKLDFSDTM [A3G]: 0.533
VSAVRKHDFSDTM [L7H]: 0.42
VTAVRKLDFSDTM [S2T]: 3.29
VSAVGKLDFSDTM [R5G]: -0.105
VSAVRKLDFGDTM [S10G]: 3.51
VSQVRKLDFSDTM [A3Q]: 0.276
VSAVRKLDFSDRM [T12R]: 3.41
VSAVYKLDFSDTM [R5Y]: 1.07
VSAVRKLNFSDTM [D8N]: 2.47
VFAVRKLDFSDTM [S2F]: 1.14
VSARRKLDFSDTM [V4R]: 3.69
VHAVRKLDFSDTM [S2H]: 2.53
VSFVRKLDFSDTM [A3F]: 0.191
VSAVRKLDFSVTM [D11V]: 3.2
VSAVRKLDFSDCM [T12C]: 3.42
VSAVRKLDPSDTM [F9P]: 0.182
VSAVRKLEFSDTM [D8E]: 2.1

Excerpt of the above (block 4):
VSAVRKLWFSDTM [D8W]: 0.194
VSAVRKLDISDTM [F9I]: 0.485
VSAVRKLDFMDTM [S10M]: 2.47
VSGVRKLDFSDTM [A3G]: 0.533
VSAVRKHDFSDTM [L7H]: 0.42
VTAVRKLDFSDTM [S2T]: 3.29
VSAVGKLDFSDTM [R5G]: -0.105
VSAVRKLDFGDTM [S10G]: 3.51
VSQVRKLDFSDTM [A3Q]: 0.276
VSAVRKLDFSDRM [T12R]: 3.41
